Results of several laboratories.
Each line is one published result; not all experiments were run side by side.
Sequence of UniProt Q53GS9 (whole entry, looked up): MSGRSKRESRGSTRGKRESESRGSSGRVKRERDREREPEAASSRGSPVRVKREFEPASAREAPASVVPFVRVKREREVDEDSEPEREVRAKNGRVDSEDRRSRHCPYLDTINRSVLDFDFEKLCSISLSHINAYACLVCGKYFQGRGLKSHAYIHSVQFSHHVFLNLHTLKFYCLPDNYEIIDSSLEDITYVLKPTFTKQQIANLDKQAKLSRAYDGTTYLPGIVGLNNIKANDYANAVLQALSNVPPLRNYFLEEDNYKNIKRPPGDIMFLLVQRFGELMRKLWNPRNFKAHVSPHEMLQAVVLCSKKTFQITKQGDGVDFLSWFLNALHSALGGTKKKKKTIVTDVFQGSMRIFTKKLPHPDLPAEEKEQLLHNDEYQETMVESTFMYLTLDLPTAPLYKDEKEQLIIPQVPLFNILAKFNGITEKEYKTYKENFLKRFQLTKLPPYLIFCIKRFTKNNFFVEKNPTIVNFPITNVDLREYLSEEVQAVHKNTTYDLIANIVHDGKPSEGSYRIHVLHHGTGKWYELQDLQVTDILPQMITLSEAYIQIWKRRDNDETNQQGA
Sequence of UniProt Q9Y2K6 (whole entry, looked up): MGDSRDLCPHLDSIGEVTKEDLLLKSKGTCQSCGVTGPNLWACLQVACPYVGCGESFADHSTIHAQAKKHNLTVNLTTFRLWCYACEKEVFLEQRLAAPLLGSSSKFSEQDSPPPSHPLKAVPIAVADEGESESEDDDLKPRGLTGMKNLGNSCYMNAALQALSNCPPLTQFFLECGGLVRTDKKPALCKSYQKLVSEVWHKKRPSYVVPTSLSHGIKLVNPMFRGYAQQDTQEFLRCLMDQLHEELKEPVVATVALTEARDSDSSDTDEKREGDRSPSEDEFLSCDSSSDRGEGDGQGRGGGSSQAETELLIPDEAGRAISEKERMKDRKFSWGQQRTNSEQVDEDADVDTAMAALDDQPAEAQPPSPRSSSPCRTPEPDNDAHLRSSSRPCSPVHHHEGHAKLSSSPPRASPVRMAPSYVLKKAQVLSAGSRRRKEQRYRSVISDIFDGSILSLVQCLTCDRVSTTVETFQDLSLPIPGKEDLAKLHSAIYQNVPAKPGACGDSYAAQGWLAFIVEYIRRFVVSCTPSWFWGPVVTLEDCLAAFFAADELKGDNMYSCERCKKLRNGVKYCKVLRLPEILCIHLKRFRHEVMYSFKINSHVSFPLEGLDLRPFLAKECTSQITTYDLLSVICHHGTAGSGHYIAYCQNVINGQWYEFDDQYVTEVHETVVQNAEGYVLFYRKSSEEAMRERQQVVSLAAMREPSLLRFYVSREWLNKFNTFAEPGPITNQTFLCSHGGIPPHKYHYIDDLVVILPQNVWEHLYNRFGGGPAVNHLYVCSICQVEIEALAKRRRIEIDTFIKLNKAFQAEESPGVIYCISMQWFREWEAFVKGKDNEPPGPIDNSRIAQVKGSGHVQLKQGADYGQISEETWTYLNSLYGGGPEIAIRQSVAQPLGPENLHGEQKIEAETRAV

The Kd of O=C(O)CNC(=O)c1ccc(C(=O)N2CCC(c3ccc(Cl)cc3)CC2)cn1 is reported as > 1000 µM (Ubiquitin carboxyl-terminal hydrolase 39, ZnF-UBD domain (Homo sapiens, UniProt Q53GS9)).
Under “log2 fold change”, Cn1cc(-c2ccc(-c3cncc(Cl)c3N3CCC4(CCNC4=O)CC3)cc2)cn1 is recorded as 2.36 (COLO 205; gene expression, microarray, item: ACTA2 mRNA; concentration not given, 2 h; baseline: untreated cells).
With CN1CCN(c2ccc3nc(-c4c(N)c5c(F)cccc5[nH]c4=O)[nH]c3c2)CC1 the inhibition was 60.1% (NLRP3 inflammasome (mouse); mouse BMDM; 10 µM).
For CS(=O)(=O)N1CCN(Cc2cc3nc(-c4cccc5[nH]ncc45)nc(N4CCOCC4)c3s2)CC1, the beat rate was 88.9% (iCell Cardiomyocytes (hiPSC-derived); xCELLigence Cardio impedance; concentration not given, 2 h; baseline: control).
The Kd of O=C(O)CCc1ccccc1OCc1ccccn1 is reported as 249 µM (Ubiquitin carboxyl-terminal hydrolase 20, ZnF-UBD domain (USP20, Homo sapiens, UniProt Q9Y2K6)).
Under “z-scored log2 fold change”, O=c1ccn([C@H]2C[C@H](O)[C@@H](CO)O2)c(=O)[nH]1 is recorded as 0.456 (binding, equilibrium dialysis LC-MS; 5 µM, thermostabilized A2AR-BRIL construct; baseline: no-protein control, direction not given).
With C[S+]([O-])c1ccc(-c2nc(-c3ccncc3)c(-c3ccc(F)cc3)[nH]2)cc1 (centres unmarked) the cell index was 103% (iCell Cardiomyocytes (hiPSC-derived); cellular impedance; concentration not given, 24 h; baseline: control).
Under “z-scored log2 fold change”, N=C(N)NCCCC(=O)O is recorded as 0.148 (binding, equilibrium dialysis LC-MS; 5 µM, thermostabilized A2AR-BRIL construct; baseline: no-protein control, direction not given).
O=C1c2c(O)ccc(O)c2C(=O)c2c(NCCNCCO)ccc(NCCNCCO)c21 has an inhibition of 54.8% (NLRP3 inflammasome (mouse); mouse BMDM; 10 µM).
With Cc1nc(Nc2ncc(C(=O)Nc3c(C)cccc3Cl)s2)cc(N2CCN(CCO)CC2)n1 the beat rate was 75.5% (iCell Cardiomyocytes (hiPSC-derived); xCELLigence Cardio impedance; concentration not given, 2 h; baseline: control).
OC[C@@H](O)[C@@H](O)[C@H](O)[C@@H](O)CO: “z-scored log2 fold change” 0.0815 (binding, equilibrium dialysis LC-MS; 5 µM, thermostabilized A2AR-BRIL construct; baseline: no-protein control, direction not given).
With C=CC(=O)Nc1cc(Nc2nccc(-n3cc(CN(C)C)c(-c4ccccc4)n3)n2)c(OC)cc1N1CCOCC1 the inhibition was -27% (NLRP3 inflammasome (mouse); mouse BMDM; 10 µM).
With NS(=O)(=O)c1nnc(NC(=O)Cc2ccccc2)s1 the Ki was 0.0594 µM (Alpha-carbonic anhydrase (Enterococcus faecium, UniProt Q3XYE8); CO2 hydration, inhibitor, stopped-flow kinetics).
For C[C@@H](Oc1cc(-c2cnn(C3CCNCC3)c2)cnc1N)c1c(Cl)ccc(F)c1Cl, the ATP level was 108% (iCell Cardiomyocytes (hiPSC-derived); CellTiter-Glo; concentration not given, 24 h; baseline: control).
The inhibition of COc1cc(Nc2ncc(F)c(Nc3ccc4c(n3)N(COP(=O)(O)O)C(=O)C(C)(C)O4)n2)cc(OC)c1OC is reported as 29.2% (NLRP3 inflammasome (mouse); mouse BMDM; 10 µM).
Under “z-scored log2 fold change”, Nc1nc(=O)c2nc(CNc3ccc(C(=O)N[C@@H](CCC(=O)O)C(=O)O)cc3)cnc2[nH]1 is recorded as 0.0936 (binding, equilibrium dialysis LC-MS; 5 µM, thermostabilized A2AR-BRIL construct; baseline: no-protein control, direction not given).
For CN(C)C/C=C/C(=O)Nc1cc2c(Nc3ccc(F)c(Cl)c3)ncnc2cc1O[C@H]1CCOC1, the beat rate was 104% (iCell Cardiomyocytes (hiPSC-derived); xCELLigence Cardio impedance; concentration not given, 2 h; baseline: control).
The inhibition of Cc1ncc(CO)c(CO)c1O is reported as 35.3% (NLRP3 inflammasome (mouse); mouse BMDM; 10 µM).
Under “log2 fold change”, Oc1ccccc1-c1n[nH]cc1-c1ccnc2ccccc12 is recorded as 0.01 (TOR1 (Candida albicans); kinase binding, MIB/MS competition; Candida albicans lysate; 10 µM; baseline: DMSO).
For CC(CN)C(=O)O (centres unmarked), “z-scored log2 fold change” read 0.292 (binding, equilibrium dialysis LC-MS; 5 µM, thermostabilized A2AR-BRIL construct; baseline: no-protein control, direction not given).
OC(CCN1CCCCC1)(c1ccccc1)C1CC2C=CC1C2 (centres unmarked) — result for “EEG Beta2-power Fz-Cz”: 0.8 µV² (resting-state EEG; healthy elderly humans; oral, 4 mg, eyes open, LS mean).
COc1cc2nccc(Oc3ccc(NC(=O)Nc4cc(C)on4)c(Cl)c3)c2cc1OC has an inhibition of -86.6% (NLRP3 inflammasome (mouse); mouse BMDM; 10 µM).
Nc1nc2c(ncn2[C@@H]2O[C@H](COP(=O)(O)OP(=O)(O)O)[C@@H](O)[C@H]2O)c(=O)[nH]1: “z-scored log2 fold change” -5.6 (binding, equilibrium dialysis LC-MS; 5 µM, thermostabilized A2AR-BRIL construct; baseline: no-protein control, direction not given).
COc1cc(OC)c(/C=C/S(=O)(=O)Cc2ccc(OC)c(NCC(=O)O)c2)c(OC)c1 gave an inhibition of 20.8% (NLRP3 inflammasome (mouse); mouse BMDM; 10 µM).
C[C@@H](Oc1cc(-n2cnc3ccc(CN4CCN(C)CC4)cc32)sc1C(N)=O)c1ccccc1C(F)(F)F gave a cell index of 97.7% (iCell Cardiomyocytes (hiPSC-derived); cellular impedance; concentration not given, 24 h; baseline: control).
For Cn1ccc(=O)c(C(N)=O)c1, “z-scored log2 fold change” read 0.088 (binding, equilibrium dialysis LC-MS; 5 µM, thermostabilized A2AR-BRIL construct; baseline: no-protein control, direction not given).
Cc1[nH]c(/C=C2\C(=O)Nc3ccc(F)cc32)c(C)c1C(=O)NC[C@H](O)CN1CCOCC1 gave an ATP level of 90.1% (iCell Cardiomyocytes (hiPSC-derived); CellTiter-Glo; concentration not given, 24 h; baseline: control).
For CC(O)(CC(=O)O)CC(=O)SCCNC(=O)CCNC(=O)[C@H](O)C(C)(C)COP(=O)(O)OP(=O)(O)OC[C@H]1O[C@@H](n2cnc3c(N)ncnc32)[C@H](O)[C@@H]1OP(=O)(O)O (some centres unmarked), “z-scored log2 fold change” read -0.269 (binding, equilibrium dialysis LC-MS; 5 µM, thermostabilized A2AR-BRIL construct; baseline: no-protein control, direction not given).
NC(=O)c1cnc2[nH]ccc2c1N[C@@H]1[C@@H]2CC3C[C@H]1C[C@@](O)(C3)C2 has a percent change of -0.28% (CD8+ naive T cells, flow cytometry; Caucasian humans, peripheral blood; 20 mg single dose; baseline: baseline).
The inhibition of CCc1cnn2c(NCc3ccc[n+]([O-])c3)cc(N3CCCC[C@H]3CCO)nc12 is reported as 52.5% (NLRP3 inflammasome (mouse); mouse BMDM; 10 µM).
For CCn1c(-c2nonc2N)nc2c(C#CC(C)(C)O)ncc(OC[C@H]3CCCNC3)c21, the beat amplitude was 121% (iCell Cardiomyocytes (hiPSC-derived); xCELLigence Cardio impedance; concentration not given, 2 h; baseline: control).
With CC(C)NCC(O)c1ccc(O)c(O)c1 (centres unmarked) the sarcomere length was 1.68 µm (ventricular cardiomyocytes, C57BL/6 mouse; dose not given, 0.272 s).

Some of these lines once more:
With C[S+]([O-])c1ccc(-c2nc(-c3ccncc3)c(-c3ccc(F)cc3)[nH]2)cc1 (centres unmarked) the cell index was 103% (iCell Cardiomyocytes (hiPSC-derived); cellular impedance; concentration not given, 24 h; baseline: control).
For CCn1c(-c2nonc2N)nc2c(C#CC(C)(C)O)ncc(OC[C@H]3CCCNC3)c21, the beat amplitude was 121% (iCell Cardiomyocytes (hiPSC-derived); xCELLigence Cardio impedance; concentration not given, 2 h; baseline: control).
For CS(=O)(=O)N1CCN(Cc2cc3nc(-c4cccc5[nH]ncc45)nc(N4CCOCC4)c3s2)CC1, the beat rate was 88.9% (iCell Cardiomyocytes (hiPSC-derived); xCELLigence Cardio impedance; concentration not given, 2 h; baseline: control).
With C=CC(=O)Nc1cc(Nc2nccc(-n3cc(CN(C)C)c(-c4ccccc4)n3)n2)c(OC)cc1N1CCOCC1 the inhibition was -27% (NLRP3 inflammasome (mouse); mouse BMDM; 10 µM).
COc1cc2nccc(Oc3ccc(NC(=O)Nc4cc(C)on4)c(Cl)c3)c2cc1OC has an inhibition of -86.6% (NLRP3 inflammasome (mouse); mouse BMDM; 10 µM).
